Values quoted from earlier work that unrelated publications cite.
Protocols differ between the studies behind these lines. ± gives the spread as reported.
CA12: Carbonic anhydrase 12 (CA12, Homo sapiens, UniProt O43570)
UniProt O43570, sequence (whole entry, looked up): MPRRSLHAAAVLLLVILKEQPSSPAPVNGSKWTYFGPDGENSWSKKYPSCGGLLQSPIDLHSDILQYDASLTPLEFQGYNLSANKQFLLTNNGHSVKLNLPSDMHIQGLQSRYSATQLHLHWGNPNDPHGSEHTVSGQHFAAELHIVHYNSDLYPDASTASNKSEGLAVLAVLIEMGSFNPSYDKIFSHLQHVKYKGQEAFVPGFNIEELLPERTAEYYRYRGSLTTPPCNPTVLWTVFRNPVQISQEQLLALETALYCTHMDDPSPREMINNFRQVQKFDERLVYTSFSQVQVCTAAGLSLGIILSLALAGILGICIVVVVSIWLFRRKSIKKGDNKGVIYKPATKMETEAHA
CA2: Carbonic anhydrase 2 (CA2, Homo sapiens, UniProt P00918)
UniProt Q16740, sequence (whole entry, looked up): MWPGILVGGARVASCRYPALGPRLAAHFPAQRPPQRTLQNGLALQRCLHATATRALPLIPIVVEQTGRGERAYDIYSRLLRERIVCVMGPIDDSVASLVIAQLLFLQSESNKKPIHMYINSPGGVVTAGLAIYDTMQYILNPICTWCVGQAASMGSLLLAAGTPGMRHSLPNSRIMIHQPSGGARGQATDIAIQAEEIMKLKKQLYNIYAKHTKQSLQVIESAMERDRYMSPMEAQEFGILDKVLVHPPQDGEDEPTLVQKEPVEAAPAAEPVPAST
UniProt Q6W5P4, sequence (whole entry, unmodified, looked up): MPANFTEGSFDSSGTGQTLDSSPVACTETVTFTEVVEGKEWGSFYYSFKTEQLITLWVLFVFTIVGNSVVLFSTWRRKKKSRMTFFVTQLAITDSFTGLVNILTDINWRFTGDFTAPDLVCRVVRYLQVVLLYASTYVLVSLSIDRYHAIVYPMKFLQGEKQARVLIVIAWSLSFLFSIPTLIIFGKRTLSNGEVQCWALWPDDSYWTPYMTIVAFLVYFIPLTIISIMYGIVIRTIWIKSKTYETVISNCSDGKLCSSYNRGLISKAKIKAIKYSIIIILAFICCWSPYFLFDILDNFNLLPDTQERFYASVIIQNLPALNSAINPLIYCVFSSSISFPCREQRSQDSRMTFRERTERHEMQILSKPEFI
UniProt P11229, sequence (whole entry, looked up): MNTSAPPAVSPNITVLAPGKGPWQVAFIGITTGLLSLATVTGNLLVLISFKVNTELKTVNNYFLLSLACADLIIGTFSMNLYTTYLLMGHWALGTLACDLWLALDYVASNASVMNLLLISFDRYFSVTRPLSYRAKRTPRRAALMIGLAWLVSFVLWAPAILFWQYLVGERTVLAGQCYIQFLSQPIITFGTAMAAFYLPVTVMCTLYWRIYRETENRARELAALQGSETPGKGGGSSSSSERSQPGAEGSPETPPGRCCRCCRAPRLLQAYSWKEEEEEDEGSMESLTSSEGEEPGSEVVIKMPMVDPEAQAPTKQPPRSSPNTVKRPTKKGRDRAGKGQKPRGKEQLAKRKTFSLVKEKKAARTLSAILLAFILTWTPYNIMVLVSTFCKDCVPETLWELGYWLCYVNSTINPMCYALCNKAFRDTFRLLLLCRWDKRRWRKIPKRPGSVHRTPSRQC
UniProt P41968, sequence (whole entry, looked up): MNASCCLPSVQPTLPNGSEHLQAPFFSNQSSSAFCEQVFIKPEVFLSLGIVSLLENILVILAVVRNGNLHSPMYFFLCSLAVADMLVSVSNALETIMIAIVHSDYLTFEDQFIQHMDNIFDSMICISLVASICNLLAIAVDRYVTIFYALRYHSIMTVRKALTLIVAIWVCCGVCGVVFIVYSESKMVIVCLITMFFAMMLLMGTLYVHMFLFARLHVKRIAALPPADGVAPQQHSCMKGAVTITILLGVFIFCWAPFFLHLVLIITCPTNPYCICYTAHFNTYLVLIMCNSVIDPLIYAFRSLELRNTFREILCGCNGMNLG

The EC50 of BP(=O)(OP(=O)(O)OP(=O)(O)OC[C@H]1O[C@@H](n2cnc3c(N)ncnc32)[C@H](O)[C@@H]1O)OP(=O)(O)OP(=O)(O)OC[C@H]1O[C@@H](n2cnc3c(N)ncnc32)[C@H](O)[C@@H]1O is reported as 63 nM (P2Y1 receptor, rat, GFP-tagged; agonist).
With CC(=O)[C@@]1(O)CC[C@H]2[C@@H]3CCC4=CC(=O)CC[C@]4(C)[C@H]3CC[C@@]21C the EC50 was 7140 nM (glucocorticoid receptor; agonist).
For Nc1c2ncn3c2nc[n+]1[C@@H]1C[C@H](COP(=O)(O)OP(=O)([O-])OC[C@H]2O[C@@H]3[C@H](O)[C@@H]2O)[C@@H](O)[C@H]1O, the EC50 was 79 nM (cADPR receptor (sea urchin); agonist; sea urchin egg homogenate).
With NS(=O)(=O)c1c(F)c(F)c([S+]([O-])CCO)c(F)c1NC1CCCCCCC1 (centres unmarked) the Kd was 250 nM (CA12; fluorescent thermal shift; pH 7.0, 37 °C, observed).
For Nc1c2ncn3c2nc[n+]1[C@@H]1O[C@H](COP(=O)(O)OP(=O)([O-])OC[C@H]2O[C@@H]3[C@H](O)[C@@H]2O)[C@@H](O)[C@H]1O, the EC50 was 32 nM (cADPR receptor, sea urchin; Ca2+ release, agonist; sea urchin egg homogenate).
COc1ccc2nc3cc(Cl)ccc3c(NCCCCNc3nc(N)nc(N)n3)c2c1 has a Kd of 430 nM (RNA repeat r(CUG)4; binding).
With NS(=O)(=O)c1c(F)c(F)c(S(=O)(=O)CCO)c(N[C@H]2CCc3ccccc32)c1F the Kd was 17 nM (CA2; thermal shift; pH 7.0, 37 °C).
COc1ccc(Oc2ccc(NC(=O)N(C)C)cc2)cc1 has an EC50 of 14000 nM (melatonin receptor 1B; agonist).
For NS(=O)(=O)c1c(F)c(F)cc(F)c1NC1CCCCCCC1, the Kd was 230 nM (CA2; thermal shift; pH 7.0, 37 °C).
Cn1ccc(-c2ccc(Cc3cc(C(=O)NC4CCOCC4)nc4c3ccn4C)cn2)n1 has an EC50 of over 10000 nM (CHRM1 (Homo sapiens, UniProt P11229); agonist).
With CCCC[C@H](NC(=O)[C@@H](NC(=O)[C@@H](N)Cc1ccc(O)cc1)C(C)C)C(=O)NCC(=O)N[C@@H](Cc1c[nH]cn1)C(=O)N[C@H](Cc1ccc2ccccc2c1)C(=O)N[C@@H](CCCN=C(N)N)C(=O)N[C@@H](Cc1c[nH]c2ccccc12)C(=O)N[C@@H](CC(=O)O)C(=O)N[C@@H](CCCN=C(N)N)C(=O)N[C@@H](Cc1ccccc1)C(=O)NCC(N)=O the EC50 was over 10000 nM (MC3R (Homo sapiens, UniProt P41968)).
With O=C1C2=C(CCN(Cc3ccccc3)C2)N2CCN=C2N1Cc1ccc(C(F)(F)F)cc1 the EC50 was 130 nM (CLPP (Homo sapiens, UniProt Q16740); enzyme activity).
NS(=O)(=O)c1c(F)c(F)cc(F)c1N[C@H]1CCCc2ccccc21 gave a Kd of 10000 nM (CA12; fluorescent thermal shift; pH 7.0, 37 °C, observed).
For N=C(N)NCCC[C@H](NC(=O)[C@H](Cc1ccccc1)NC(=O)[C@@H](N)CO)C(=O)N[C@@H](CC(N)=O)C(=O)NCC(N)=O, the EC50 was 515 ± 51.2 nM (NPSR1 (Homo sapiens, UniProt Q6W5P4, N107I); calcium mobilization, agonist; receptor variant).
